Experimental data collected from several papers.
Each numbered part is a random draw from the data of one study; scales do not carry over between parts. Substitutions count along the parent as printed.

Study 1 — target: CEBPA, bZIP domain (human); technique: DHFR protein complementation; sample: yeast; reference: wild-type JUN-FOS pair; reading: higher = stronger binding
Notes: single substitutions, most at no-binding floor
Parent: JUN, bZIP domain (human); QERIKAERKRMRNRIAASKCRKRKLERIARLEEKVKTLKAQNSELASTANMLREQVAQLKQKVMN; partner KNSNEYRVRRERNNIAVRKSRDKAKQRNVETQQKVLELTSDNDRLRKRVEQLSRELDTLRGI
| Change | binding fitness [natural log] |
| --- | --- |
| L52M | -1.33 |
| K34R | -1.4 |
| K34M | -1.45 |
| A29H | -1.06 |
| R30N | -1.36 |
| A46N | -1.4 |
| T48G | -1.47 |
| A29Y | -1.44 |
| L45R | -1.48 |
| K34V | -1.37 |
| T48R | -1.42 |
| A46E | -1.3 |
| T37P | -1.52 |
| L45N | -1.54 |
| T37V | -1.45 |
| R53Y | -1.4 |
| L31A | -1.49 |

Study 2 — technique: protein binding microarray; form: double-stranded DNA, one strand shown; sample: in vitro; tested at: not given; reference: not given; reading: higher = stronger binding
Target: Histone acetyltransferase KAT6A, winged helix 1, GST fusion (KAT6A, Homo sapiens, UniProt Q92794, residues 1-85)
Notes: 8-mer, flanks averaged, mean of 2 arrays, mostly near background
Residues (chain): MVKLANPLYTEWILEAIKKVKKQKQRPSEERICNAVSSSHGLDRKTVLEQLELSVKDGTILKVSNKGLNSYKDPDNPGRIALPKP
| Sequence | E-score |
| --- | --- |
| AAAGGTTG | -0.133 |
| GTGCGCAC | 0.37 |
| GACGTACA | -0.12 |
| ACCTTCCC | 0.0181 |
| CGAAACGA | -0.155 |
| AACTCTGC | -0.192 |
| ATCCTCAT | -0.232 |
| GTCTTCCA | -0.166 |
| CAGTCTTC | -0.0959 |
| AGTGGTCA | -0.13 |
| AATAACAG | -0.0256 |
| CTAATCAA | -0.123 |
| AGAACTCC | -0.111 |
| GGGGCGTA | 0.156 |
| CCTCAGCG | 0.3 |
| TGGATAAA | -0.104 |
| ACCGATGA | 0.0333 |
| ATCGCGAG | 0.225 |
| ATTCAGTG | -0.112 |
| ACGCGCAA | 0.372 |
| AGCAAAAC | -0.034 |
| CGAACGAG | 0.011 |
| CATTTTAG | 0.00617 |
| ATCTACTC | 0.0348 |
| AAGCTCCC | -0.0162 |

Study 3 — technique: universal PBM; form: double-stranded DNA, one strand shown; sample: in vitro; tested at: 600 nM; reading: higher = stronger binding
Target: Sal-like protein 4, full length isoform A (SALL4, Homo sapiens, UniProt Q9UJQ4, residues 1-1053)
UniProt Q9UJQ4, sequence (whole entry, looked up): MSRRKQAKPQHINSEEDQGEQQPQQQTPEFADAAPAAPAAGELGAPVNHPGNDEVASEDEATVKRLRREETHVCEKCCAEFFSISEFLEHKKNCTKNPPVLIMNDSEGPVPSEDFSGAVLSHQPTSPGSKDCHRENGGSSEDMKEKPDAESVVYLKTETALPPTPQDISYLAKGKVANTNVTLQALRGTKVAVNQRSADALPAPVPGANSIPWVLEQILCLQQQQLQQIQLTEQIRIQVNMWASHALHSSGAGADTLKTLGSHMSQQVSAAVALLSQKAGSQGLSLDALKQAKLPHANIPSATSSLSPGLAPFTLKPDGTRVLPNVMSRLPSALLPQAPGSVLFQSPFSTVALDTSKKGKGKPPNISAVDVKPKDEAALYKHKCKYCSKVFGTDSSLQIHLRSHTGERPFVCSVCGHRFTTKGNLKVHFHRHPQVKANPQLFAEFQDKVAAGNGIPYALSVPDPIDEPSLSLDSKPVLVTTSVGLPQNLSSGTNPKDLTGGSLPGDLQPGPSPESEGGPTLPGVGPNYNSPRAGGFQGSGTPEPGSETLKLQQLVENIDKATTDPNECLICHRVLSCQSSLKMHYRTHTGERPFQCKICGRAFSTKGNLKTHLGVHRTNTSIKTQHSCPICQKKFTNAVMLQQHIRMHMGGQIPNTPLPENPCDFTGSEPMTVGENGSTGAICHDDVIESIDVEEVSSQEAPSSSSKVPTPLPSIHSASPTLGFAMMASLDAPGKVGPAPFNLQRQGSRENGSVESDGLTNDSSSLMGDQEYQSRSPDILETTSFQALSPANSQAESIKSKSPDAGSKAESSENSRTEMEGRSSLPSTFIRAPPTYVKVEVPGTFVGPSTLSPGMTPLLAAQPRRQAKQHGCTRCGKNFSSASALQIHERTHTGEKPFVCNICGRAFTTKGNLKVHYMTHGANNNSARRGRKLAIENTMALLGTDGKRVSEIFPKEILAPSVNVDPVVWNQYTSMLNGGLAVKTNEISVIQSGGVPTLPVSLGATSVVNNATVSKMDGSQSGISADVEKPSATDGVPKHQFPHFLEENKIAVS
Notes: 8-mer, flanks averaged, mean of replicates
| Sequence | E-score |
| --- | --- |
| AAGCACAG | -0.0336 |
| GCCGTATA | 0.26 |
| AATTTCGG | 0.101 |
| ATAGGGGA | 0.0633 |
| CGGGGAGA | -0.345 |
| GCAACGGC | -0.126 |
| AATGTAAT | 0.321 |
| GGCGGTGA | -0.0657 |
| GAATCAAC | 0.123 |
| ATTGCTGA | 0.166 |
| AGCCAAAG | -0.0179 |
| AAGCCCCG | -0.277 |
| CACAGAAA | 0.012 |
| CAAATGTC | 0.0284 |
| TAAGCTCA | -0.0673 |
| GAGAGCGC | -0.33 |
| TACGCAGA | 0.11 |
| AAGATAGT | 0.174 |
| TAGAACAA | 0.177 |
| GCCTCAAC | -0.0202 |
| TCTTGCCA | -0.0517 |
| AATAGCCA | 0.189 |
| ACGCCGTA | -0.0654 |
| CCTAGACG | -0.246 |
| ATCTGGAC | -0.0605 |

Study 4 — technique: protein-binding microarray; form: double-stranded DNA, one strand shown; sample: in vitro; tested at: not given; reading: higher = stronger binding
Target: Transcriptional repressor CTCF (CTCF, Homo sapiens, UniProt P49711, residues 1-727, full length assumed)
UniProt P49711, sequence (whole entry, looked up): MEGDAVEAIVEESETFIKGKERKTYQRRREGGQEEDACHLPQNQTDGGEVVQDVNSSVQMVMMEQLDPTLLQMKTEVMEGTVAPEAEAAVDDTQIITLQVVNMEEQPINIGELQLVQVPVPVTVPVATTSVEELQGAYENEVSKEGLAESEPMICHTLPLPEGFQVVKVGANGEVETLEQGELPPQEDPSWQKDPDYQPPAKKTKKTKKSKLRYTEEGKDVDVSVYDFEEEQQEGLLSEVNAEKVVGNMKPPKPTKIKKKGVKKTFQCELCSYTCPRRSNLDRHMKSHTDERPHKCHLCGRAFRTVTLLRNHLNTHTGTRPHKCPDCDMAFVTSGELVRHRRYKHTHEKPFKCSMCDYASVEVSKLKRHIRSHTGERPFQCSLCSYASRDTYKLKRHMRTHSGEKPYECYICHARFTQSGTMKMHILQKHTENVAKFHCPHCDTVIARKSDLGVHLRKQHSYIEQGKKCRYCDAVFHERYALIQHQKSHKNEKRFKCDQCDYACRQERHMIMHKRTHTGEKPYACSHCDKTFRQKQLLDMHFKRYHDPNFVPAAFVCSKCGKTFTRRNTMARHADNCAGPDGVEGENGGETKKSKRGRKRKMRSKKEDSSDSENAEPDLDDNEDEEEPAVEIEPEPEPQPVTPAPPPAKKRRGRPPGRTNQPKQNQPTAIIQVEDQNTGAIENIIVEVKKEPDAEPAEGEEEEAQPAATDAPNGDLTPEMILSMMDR
Notes: k-mer, scored over probes, only values ≥0.25
| Sequence | E-score |
| --- | --- |
| TAAAAATA | 0.328 |
| AATATAGC | 0.275 |
| AATTAACA | 0.304 |
| TAGTATGA | 0.294 |
| TAAAATGA | 0.287 |
| AGGCGGGG | 0.342 |
| AAATAAAT | 0.333 |
| GTTACTCA | 0.293 |
| AGAACAAA | 0.288 |
| CCGATAGG | 0.286 |
| GTACGATA | 0.304 |
| ACCAATAT | 0.289 |
| CCGCGCGG | 0.301 |
| CCTTATTA | 0.292 |
| ATAGTATG | 0.291 |
| ACTTAATA | 0.288 |
| GTATACAA | 0.28 |
| CATAATTA | 0.354 |

Study 5 — technique: RNA Bind-n-Seq; form: RNA; sample: in vitro; tested at: 365 nM; reference: no-protein control; reading: higher = stronger binding
Target: RNA binding protein fox-1 homolog 2, RRM domain, GST-SBP tag (RBFOX2, Homo sapiens, UniProt O43251-10, residues 100-194)
Notes: natural RNA segment, single round, ends assumed
Target sequence (chain): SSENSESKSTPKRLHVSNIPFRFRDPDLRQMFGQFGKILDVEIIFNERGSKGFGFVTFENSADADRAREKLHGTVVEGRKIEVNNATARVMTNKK
| Sequence | RBNS enrichment (R) |
| --- | --- |
| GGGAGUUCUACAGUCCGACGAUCCCGCUUCCCCCUCCAACCCACAGCCUUUGCUUCCAGGUGGCAGGAUUACUACUUUGCCUCUUCAGCAGCAUCUACUCUAGGCAUAUUGAUCAUUUUAGACACUGGGAGAAUGGAAUUCUCGGGUGCCAA | 1.88 |
| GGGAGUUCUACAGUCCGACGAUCGACUCCCUGGGCUCCCCCCUGCCUUCAUCUCACAAGAAACUUCCUGAUGCAUCAAACUUGAGUUUUUUCCACCUCAUCUUUCCCAGUGUUUGGAAAGGUGUGAGGGUAGAUGGAAUUCUCGGGUGCCAA | 1.64 |
| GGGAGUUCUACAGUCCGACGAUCCCUUCCCUGUUUUCUCCCCAGAAUUCUAAAACAAAGUUCAGUGGCGAGCAGCAUCUCUAGGCUCUGGUCCUGUCUGGCCAUGGUGCGCCCGUGGCCCUGCCUCCUAGUGCUGGAAUUCUCGGGUGCCAA | 0.538 |
| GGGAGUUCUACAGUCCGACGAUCUAAGAGUUCCCUAGGGAGUUACCAGGGCUUUUCGUUUUGUGUAGCUUUUGCAGCAUGGAUCAAACAUUGGCUUACUGUGCUAAUGUGUGAAGAGAAAAAAUUCUCUAAAGUGGAAUUCUCGGGUGCCAA | 0.887 |
| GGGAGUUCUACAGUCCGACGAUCCCCAUGGUUCAAGUGACAGUGGGUGACCUUGUCUGCCAAGAUCUUUCUUUUGAAUGUUUUGAACCCAACUACUUGUCAUAGAUGUUUGACUGUGUCAAAAGCUGUGAGCAUGGAAUUCUCGGGUGCCAA | 2.1 |
| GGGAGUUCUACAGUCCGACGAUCUGCGCCAUUGCUGCACGCGGGUGGCCCUCUGCCAGGCCGUGGACUGGCUCAUGCCUCAGCCCGCCUUCAGGCUGCCCGCCGCCCCUCCACCCAUCCAGUGGACUCUGGGGUGGAAUUCUCGGGUGCCAA | 1.13 |
| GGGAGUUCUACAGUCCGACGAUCUUUCCAUUGCCUUAACGCUGGGUGGUCAGGGCCCCAAGGAACUCUGGAUCUAAGCUCAGGAGUACACAUAGCAGCUAUGGGUAUGGGUGUCCUCCUCUGGUGUAACUGUGUGGAAUUCUCGGGUGCCAA | 0.674 |
| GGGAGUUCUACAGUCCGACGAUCUGACUUAGGAGUGAUGUGGCUAACUGAGGCCUGAGUGAGUGUGUAGAUUGUCCUUGGGUGAGUGAGAAAAAACACUUUGCAUUGCUUUCAGGUUGGUGGAAAAUGUCAGUUGGAAUUCUCGGGUGCCAA | 1.63 |
| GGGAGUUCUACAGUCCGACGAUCAUAAGAAUGUCAGCCUAGCCACAGAGUCUGAGAUUCUGAGUUCAGCCUAGCCACAGAGUCUAAGAUUCUGUAUCCUCUGACAUUUUGGAAAUGAUACACUACUGGCUUAAUGGAAUUCUCGGGUGCCAA | 0.249 |
| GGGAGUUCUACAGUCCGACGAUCCAAGCCUCCCUCCCUGGGCUACAGGGCCUCCGGUCCUGCUCCCAUACCCAGGUUUGGUUCCUCUAGGGGGGGGCCCCCACUGUGGAGAUAAAAGUCGGGGAUGGAAUGGGUGGAAUUCUCGGGUGCCAA | 0.574 |
| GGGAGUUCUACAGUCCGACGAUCGUGGUGCAGUGUCUCUCUUUGUAGGGACUACAAGAAAUAACUUUGAAGGCAAGAAAGUCAUUAGCUUAGAAUAUGAAGCGUAUGUACCGAUGGCAGAAAAUGAAAUCAGAUGGAAUUCUCGGGUGCCAA | 0.541 |
| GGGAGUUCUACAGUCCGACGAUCCAUCUGCCCUCUGAGUUCUUUCUGUGUGAUCUAUUUUUUAAGAAGAGUUUGUAUUAUUUUUUCAUAACGGCUGCAGCAGCAGCUGCUGGGGGUUUAGGGGGAUGGUUUUGUGGAAUUCUCGGGUGCCAA | 0.7 |

Study 6 — technique: DHFR PCA, deep sequencing; sample: yeast; with: (+)-ABA 17 µM; reference: wild-type fitted maximum; reading: higher = stronger binding
Target: ABI1, truncated, D143A, DHFR fusion (Arabidopsis thaliana)
Notes: methotrexate growth selection, single substitutions
Parent: PYL1, truncated, DHFR fusion (Arabidopsis thaliana); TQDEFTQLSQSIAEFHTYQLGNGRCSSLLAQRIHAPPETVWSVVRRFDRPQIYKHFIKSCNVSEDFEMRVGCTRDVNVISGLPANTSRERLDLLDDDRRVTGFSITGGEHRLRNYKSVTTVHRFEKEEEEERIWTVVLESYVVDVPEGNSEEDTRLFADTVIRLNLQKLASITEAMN; partner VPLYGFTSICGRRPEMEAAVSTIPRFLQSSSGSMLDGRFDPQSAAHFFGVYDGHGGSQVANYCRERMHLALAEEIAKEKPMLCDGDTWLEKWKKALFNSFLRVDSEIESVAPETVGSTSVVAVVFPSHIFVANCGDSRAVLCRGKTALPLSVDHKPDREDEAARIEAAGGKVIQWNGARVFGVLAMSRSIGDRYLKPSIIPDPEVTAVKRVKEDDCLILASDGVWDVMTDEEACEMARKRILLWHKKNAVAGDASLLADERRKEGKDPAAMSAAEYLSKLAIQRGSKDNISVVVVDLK
| Change | relative binding score [%] |
| --- | --- |
| S11M | 72.8 |
| C72R | 39.2 |
| A30M | 89.5 |
| V43G | -5.33 |
| I172P | 6.42 |
| R113T | 98.4 |
| R69M | 78.2 |
| G148K | 45.8 |
| E89D | 22.4 |
| E130L | 77.3 |
| R113G | 58.5 |
| T17W | 17.1 |
| I162R | -10.4 |
| H55E | 81.5 |
| V121P | 0.561 |
| E14G | 28.1 |
| W41G | -7.29 |
| E152P | 44.7 |
| D97N | 93.6 |
| S171A | 91.4 |
| T86G | 68.5 |
| H34C | 82.3 |
| L82C | 37.4 |
| I105N | 0.474 |
| Q7M | 85.9 |

Mixed results
P1: CDAN1 docking peptide (human); RGARSQLFPPTEA; partner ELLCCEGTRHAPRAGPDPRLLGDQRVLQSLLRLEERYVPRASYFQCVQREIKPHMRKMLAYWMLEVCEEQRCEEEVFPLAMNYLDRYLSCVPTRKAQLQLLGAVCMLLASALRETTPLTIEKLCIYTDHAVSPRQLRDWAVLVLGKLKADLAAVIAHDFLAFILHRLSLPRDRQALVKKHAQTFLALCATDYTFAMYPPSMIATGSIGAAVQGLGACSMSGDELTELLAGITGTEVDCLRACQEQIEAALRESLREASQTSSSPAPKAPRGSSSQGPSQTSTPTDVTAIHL
| Substance | tested on | test | test system | setting | how to read | quantity | value |
| --- | --- | --- | --- | --- | --- | --- | --- |
| LLRRLQDVANDRG | Saccharomyces cerevisiae | binding, competitive growth deep sequencing | peptide, cyclin E1-Cln2 fusion strain | concentration not given, peptide library 2 | direction not given | growth enrichment score | 0.606 |
| KRCATPVIIDEILPSK | Saccharomyces cerevisiae | binding, competitive growth deep sequencing | peptide, cyclin E1-Cln2 fusion strain | concentration not given, tiling library, Cln2 subtracted | direction not given | growth enrichment score | 0.866 |
| P1 P10A | CCND3, cyclin fold, Cln2 fusion (human) | yeast growth competition, sequencing | yeast | weak parent motif | reference: not given, higher = stronger binding | normalised enrichment score | 0.199 |
| IPDRSTKPVVFSPT | Saccharomyces cerevisiae | binding, competitive growth deep sequencing | peptide, cyclin E1-Cln2 fusion strain | concentration not given, tiling library, Cln2 subtracted | direction not given | growth enrichment score | 0.392 |

For quick reference, copied from above (study 6):
| Change | relative binding score [%] |
| --- | --- |
| W41G | -7.29 |
| T17W | 17.1 |
| A30M | 89.5 |
| S171A | 91.4 |
| Q7M | 85.9 |
| R113T | 98.4 |
| V121P | 0.561 |
| H34C | 82.3 |
| H55E | 81.5 |
